Assay results collected from several papers.
Values joined by “and” are separate records of one study, mostly repeats; a detail may differ. ± marks the error that the study gave.
mtrB: Transcription attenuation protein MtrB (mtrB, Halalkalibacterium halodurans, UniProt Q9KCC6)
UniProt Q9KCC6, sequence (whole entry, looked up): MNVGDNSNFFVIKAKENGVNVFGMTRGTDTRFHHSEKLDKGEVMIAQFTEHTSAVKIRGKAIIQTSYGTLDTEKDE
USP5 ZnF-UBD domain: Ubiquitin carboxyl-terminal hydrolase 5, ZnF-UBD domain (USP5, Homo sapiens, UniProt P45974)
UniProt P45974, sequence (whole entry, looked up): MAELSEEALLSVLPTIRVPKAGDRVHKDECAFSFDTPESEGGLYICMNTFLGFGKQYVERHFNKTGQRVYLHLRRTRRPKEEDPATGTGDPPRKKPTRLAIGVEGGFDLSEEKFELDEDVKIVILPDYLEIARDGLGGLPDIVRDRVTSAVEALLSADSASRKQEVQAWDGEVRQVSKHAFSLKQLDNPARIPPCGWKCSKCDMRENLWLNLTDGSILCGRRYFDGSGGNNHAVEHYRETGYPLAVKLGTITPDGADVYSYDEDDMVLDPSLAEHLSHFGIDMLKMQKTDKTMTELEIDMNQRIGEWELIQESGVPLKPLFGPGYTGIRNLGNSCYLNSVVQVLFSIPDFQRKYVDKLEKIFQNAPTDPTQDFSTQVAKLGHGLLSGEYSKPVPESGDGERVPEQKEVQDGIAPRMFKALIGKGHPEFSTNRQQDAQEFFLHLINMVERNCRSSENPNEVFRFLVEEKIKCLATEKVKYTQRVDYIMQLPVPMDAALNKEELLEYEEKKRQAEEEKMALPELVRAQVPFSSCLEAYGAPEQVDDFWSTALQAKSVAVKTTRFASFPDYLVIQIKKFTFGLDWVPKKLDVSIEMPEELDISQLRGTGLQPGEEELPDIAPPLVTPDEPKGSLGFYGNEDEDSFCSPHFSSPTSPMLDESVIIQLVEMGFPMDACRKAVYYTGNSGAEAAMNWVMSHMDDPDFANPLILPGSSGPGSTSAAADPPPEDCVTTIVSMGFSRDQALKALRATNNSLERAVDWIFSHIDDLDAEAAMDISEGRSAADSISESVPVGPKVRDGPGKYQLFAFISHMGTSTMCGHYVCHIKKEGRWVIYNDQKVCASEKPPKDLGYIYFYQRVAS
GATD3: Glutamine amidotransferase-like class 1 domain-containing protein 3, mitochondrial (GATD3, Homo sapiens, UniProt P0DPI2)
UniProt P0DPI2, sequence (whole entry, looked up): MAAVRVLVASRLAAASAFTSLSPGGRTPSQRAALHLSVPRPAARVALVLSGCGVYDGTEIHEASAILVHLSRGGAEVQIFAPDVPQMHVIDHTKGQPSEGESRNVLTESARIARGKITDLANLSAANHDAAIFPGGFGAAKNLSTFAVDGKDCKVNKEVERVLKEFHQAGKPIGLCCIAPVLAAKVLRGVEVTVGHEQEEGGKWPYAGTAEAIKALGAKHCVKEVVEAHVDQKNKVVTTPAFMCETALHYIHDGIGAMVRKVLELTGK
Tumor necrosis factor receptor superfamily member 1A extracellular domain: Tumor necrosis factor receptor superfamily member 1A, extracellular domain (Homo sapiens, UniProt P19438)
UniProt P19438, sequence (whole entry, looked up): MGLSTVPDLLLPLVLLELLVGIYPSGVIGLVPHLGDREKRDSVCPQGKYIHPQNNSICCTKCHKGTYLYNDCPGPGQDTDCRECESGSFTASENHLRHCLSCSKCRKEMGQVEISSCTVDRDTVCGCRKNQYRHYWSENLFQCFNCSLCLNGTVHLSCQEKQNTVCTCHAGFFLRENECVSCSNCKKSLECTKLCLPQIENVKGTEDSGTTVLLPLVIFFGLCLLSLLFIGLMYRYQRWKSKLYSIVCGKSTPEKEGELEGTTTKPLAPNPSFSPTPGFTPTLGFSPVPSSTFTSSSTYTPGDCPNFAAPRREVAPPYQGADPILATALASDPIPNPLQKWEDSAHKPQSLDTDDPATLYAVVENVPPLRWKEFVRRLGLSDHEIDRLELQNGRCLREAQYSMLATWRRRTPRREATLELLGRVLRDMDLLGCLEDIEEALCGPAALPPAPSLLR
SCN8A C-terminal domain: Sodium channel protein type 8 subunit alpha, C-terminal domain (SCN8A, Homo sapiens, UniProt Q9UQD0)
UniProt Q9UQD0, sequence (whole entry, looked up): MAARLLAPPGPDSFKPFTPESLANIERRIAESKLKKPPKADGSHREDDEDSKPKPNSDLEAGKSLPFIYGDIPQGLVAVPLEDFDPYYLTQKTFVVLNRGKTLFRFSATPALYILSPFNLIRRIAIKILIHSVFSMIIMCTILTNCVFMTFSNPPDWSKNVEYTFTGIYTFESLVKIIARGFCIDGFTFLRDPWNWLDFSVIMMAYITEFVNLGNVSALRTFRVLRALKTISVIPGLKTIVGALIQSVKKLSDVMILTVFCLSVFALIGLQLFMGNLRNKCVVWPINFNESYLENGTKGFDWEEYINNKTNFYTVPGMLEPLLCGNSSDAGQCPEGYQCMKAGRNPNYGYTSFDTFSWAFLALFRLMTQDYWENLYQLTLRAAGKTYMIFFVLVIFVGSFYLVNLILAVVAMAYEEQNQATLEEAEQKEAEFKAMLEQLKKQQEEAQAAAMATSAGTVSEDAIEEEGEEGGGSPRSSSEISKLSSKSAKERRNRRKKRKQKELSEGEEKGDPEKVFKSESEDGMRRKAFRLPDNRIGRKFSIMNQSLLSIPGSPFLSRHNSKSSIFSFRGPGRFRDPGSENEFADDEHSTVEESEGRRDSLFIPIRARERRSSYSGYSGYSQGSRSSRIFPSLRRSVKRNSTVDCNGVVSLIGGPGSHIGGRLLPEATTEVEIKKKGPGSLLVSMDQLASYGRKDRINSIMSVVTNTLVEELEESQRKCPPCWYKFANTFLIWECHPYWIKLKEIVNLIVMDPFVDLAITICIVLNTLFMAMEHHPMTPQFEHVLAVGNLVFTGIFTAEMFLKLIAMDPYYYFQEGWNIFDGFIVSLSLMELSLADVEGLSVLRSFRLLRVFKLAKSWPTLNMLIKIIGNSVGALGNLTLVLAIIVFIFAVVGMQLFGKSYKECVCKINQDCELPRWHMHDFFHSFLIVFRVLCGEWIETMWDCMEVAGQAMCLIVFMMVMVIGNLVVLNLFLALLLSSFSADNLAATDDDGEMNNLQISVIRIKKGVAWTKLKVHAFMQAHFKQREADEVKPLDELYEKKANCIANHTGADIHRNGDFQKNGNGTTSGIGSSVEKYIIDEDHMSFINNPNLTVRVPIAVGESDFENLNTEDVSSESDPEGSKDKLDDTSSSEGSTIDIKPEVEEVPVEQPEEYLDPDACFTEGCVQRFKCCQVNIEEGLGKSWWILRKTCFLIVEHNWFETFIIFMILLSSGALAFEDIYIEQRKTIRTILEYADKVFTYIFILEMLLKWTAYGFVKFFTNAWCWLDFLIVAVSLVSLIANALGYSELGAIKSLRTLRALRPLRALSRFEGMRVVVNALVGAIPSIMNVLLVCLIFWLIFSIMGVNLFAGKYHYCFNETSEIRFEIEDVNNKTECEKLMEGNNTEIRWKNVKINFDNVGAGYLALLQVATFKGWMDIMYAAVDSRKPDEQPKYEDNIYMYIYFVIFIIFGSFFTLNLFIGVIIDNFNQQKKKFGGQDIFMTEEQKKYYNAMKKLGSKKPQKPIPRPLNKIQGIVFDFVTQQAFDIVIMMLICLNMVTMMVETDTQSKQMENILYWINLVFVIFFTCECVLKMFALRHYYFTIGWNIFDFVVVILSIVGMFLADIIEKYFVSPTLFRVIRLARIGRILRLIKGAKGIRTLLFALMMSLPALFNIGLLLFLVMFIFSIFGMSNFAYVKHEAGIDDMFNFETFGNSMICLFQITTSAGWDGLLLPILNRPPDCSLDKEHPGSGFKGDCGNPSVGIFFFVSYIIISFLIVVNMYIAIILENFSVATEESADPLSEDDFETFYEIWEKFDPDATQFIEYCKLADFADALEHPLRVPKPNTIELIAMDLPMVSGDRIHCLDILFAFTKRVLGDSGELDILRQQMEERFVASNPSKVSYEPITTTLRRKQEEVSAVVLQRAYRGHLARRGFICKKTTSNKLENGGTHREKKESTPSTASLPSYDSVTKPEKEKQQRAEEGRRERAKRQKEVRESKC
HDAC5: Histone deacetylase 5 (HDAC5, Homo sapiens, UniProt Q9UQL6)
UniProt Q9UQL6, sequence (whole entry, looked up): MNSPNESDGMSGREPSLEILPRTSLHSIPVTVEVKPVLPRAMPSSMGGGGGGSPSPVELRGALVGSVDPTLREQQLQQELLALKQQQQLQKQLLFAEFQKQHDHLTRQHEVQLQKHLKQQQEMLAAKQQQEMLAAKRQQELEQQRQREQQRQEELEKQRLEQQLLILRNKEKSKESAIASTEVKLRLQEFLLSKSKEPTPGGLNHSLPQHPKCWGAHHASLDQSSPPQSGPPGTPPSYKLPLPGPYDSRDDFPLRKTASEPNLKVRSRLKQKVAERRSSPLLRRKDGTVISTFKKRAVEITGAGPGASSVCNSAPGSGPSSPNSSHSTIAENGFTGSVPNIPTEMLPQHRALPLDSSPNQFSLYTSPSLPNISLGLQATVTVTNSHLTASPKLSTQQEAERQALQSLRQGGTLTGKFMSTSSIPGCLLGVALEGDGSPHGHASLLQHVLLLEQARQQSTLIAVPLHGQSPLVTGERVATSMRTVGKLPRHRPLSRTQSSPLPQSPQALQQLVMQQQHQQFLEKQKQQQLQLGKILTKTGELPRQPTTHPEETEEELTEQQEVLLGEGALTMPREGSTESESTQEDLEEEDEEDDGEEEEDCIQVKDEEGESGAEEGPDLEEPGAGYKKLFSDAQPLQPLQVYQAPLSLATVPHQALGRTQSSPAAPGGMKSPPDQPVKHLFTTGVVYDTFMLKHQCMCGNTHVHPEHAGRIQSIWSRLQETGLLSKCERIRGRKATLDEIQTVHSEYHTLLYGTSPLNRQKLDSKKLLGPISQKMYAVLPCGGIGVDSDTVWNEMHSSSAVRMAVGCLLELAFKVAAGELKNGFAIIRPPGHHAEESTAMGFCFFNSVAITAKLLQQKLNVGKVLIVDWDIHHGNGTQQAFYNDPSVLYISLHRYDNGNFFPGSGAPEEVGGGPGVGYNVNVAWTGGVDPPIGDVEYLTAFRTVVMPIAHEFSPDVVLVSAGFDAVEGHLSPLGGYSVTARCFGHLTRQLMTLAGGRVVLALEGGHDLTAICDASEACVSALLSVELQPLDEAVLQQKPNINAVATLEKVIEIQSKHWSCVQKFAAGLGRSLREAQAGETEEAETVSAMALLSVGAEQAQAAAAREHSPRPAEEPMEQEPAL
UniProt P62993, sequence (whole entry, looked up): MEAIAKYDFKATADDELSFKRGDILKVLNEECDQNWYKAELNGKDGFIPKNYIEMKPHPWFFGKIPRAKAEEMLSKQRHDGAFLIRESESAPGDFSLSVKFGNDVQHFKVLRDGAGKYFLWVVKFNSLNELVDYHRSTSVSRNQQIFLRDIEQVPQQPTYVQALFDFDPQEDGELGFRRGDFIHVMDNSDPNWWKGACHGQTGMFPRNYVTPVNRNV

`N[C@@H](Cc1c[nH]c2ccccc12)C(=O)O` has a Kd of 6.5 ± 1 µM (mtrB; binding, ITC).
For `COc1ccc(C=C2SC(=O)N(C(C)C(=O)O)C2=O)cc1` (stereo not shown), the Kd was > 1000 µM (USP5 ZnF-UBD domain).
For `O=C(CCCCCCC(=O)Nc1ccccc1)NO`, the Kd was 1.53 µM (GATD3; inhibitor, competition pulldown; SW620 and MV4-11 lysate; 1 h).
The Kd of `O=C(O)c1cc(-c2ccc3c(c2)OCCO3)ccn1` is reported as 1423 ± 1 µM (Tumor necrosis factor receptor superfamily member 1A extracellular domain; SPR OneStep; immobilized target).
With `CSc1nc(C)c(CCC(=O)O)c(=O)[nH]1` the Kd was > 1000 µM (USP5 ZnF-UBD domain).
With `C#Cc1cccc(Nc2ncnc3cc(OC)c(OCCCCCCC(=O)NO)cc23)c1` the Kd was > 30.2 µM (GATD3; inhibitor, competition pulldown; SW620 and MV4-11 lysate; 1 h).
For `O=C(O)CCC(=O)Nc1cccc2ccccc12`, the Kd was > 1000 µM (USP5 ZnF-UBD domain).
For `NCCc1c[nH]c2ccc(O)cc12`, the Kd was 0.00646 ± 0.0006 µM (5-hydroxytryptamine receptor 1E (5HT1E, Cavia porcellus, UniProt Q6VB83); binding, radioligand, saturation binding; AV12 cell membranes; pH 7.4, 37 °C).
With `CCCCOc1ccc(CC(=O)NO)cc1` the Kd was 1.59 µM (GATD3; inhibitor, competition pulldown; SW620 and MV4-11 lysate; 1 h).
For `C[C@@H](N[C@@H](CCCN=C(N)N)C(=O)O)C(=O)O`, the Kd was 0.268 µM and 0.196 µM (uncharacterized protein (Pelagibacter ubique, UniProt Q4FLC2); isothermal titration calorimetry; Candidatus Pelagibacter ubique).
The Kd of `O=C(O)CCc1ccccc1` is reported as > 1000 µM (USP5 ZnF-UBD domain).
With `CC(C)C[C@H](NC(=O)[C@H](Cc1c[nH]cn1)NC(=O)[C@H](CCCNC(=N)N)NC(=O)[C@H](CCCNC(=N)N)NC(=O)[C@@H](NC(=O)CNC(=O)[C@H](Cc1c[nH]cn1)NC(=O)[C@@H]1CCCN1C(=O)[C@H](CO)NC(=O)[C@@H]1CCCN1)[C@@H](C)O)C(=O)N1CCC[C@H]1C(=O)N[C@@H](CO)C(=O)N1CCC[C@H]1C(=O)N1CCC[C@H]1C(=O)O` the Kd was 650 µM (Growth factor receptor-bound protein 2, C-terminal SH3 domain (GRB2, Homo sapiens, UniProt P62993); binding to C-terminal SH3 domain, NMR titration).
For `N[C@@H](Cc1c[nH]c2ccccc12)C(=O)O`, the Kd was 0.25 µM (mtrB; binding, native mass spectrometry; Bacillus halodurans).
The Kd of `O=C(Nc1nnc(-c2ccncc2)s1)C(F)(F)Cl` is reported as 16.8 µM (MAPK8 (Homo sapiens, UniProt P45983)).
For `Cc1sc2ncn(CC(=O)O)c(=O)c2c1C`, the Kd was 238 µM (USP5 ZnF-UBD domain).
With `O=C(O)c1cc(-c2ccc3[nH]ccc3c2)ccn1` the Kd was 576 ± 11 µM (Tumor necrosis factor receptor superfamily member 1A extracellular domain; binding, SPR OneStep).
The Kd of `O=C(O)Cc1cccc2cccnc12` is reported as > 1000 µM (USP5 ZnF-UBD domain).
The Kd of `Cc1cccc(NC(=O)Cn2cc(CO)c3ccccc32)c1` is reported as 9.83 ± 0.29 µM (SCN8A C-terminal domain; binding).
For `O=C(NO)c1cnc(NC2(c3ccccc3)CC2)nc1`, the Kd was > 30.2 µM (GATD3; inhibitor, competition pulldown; SW620 and MV4-11 lysate; 1 h).
For `Cn1ccc2cc(-c3ccnc(C(=O)O)c3)ccc21`, the Kd was 597 ± 152 µM (Tumor necrosis factor receptor superfamily member 1A extracellular domain; SPR OneStep; immobilized target).
The Kd of `CC(=O)Nc1ccc(S(=O)(=O)N2CCN(CC(O)COc3ccc4ccccc4c3)CC2)cc1` (stereo not shown) is reported as 3.96 ± 0.1 µM (SCN8A C-terminal domain; SPR; PBS with 0.005% Tween-20 and 2% DMSO; 25 °C, immobilised C-terminal domain).
`CC(=O)N[C@H](C(=O)N[C@@H](CC(N)=O)C(=O)N[C@@H](CO)C(=O)N[C@H]1CSSC[C@@H](C(=O)NCC(=O)N[C@@H](CC(=O)O)C(=O)N[C@@H](CC(=O)O)C(=O)N[C@@H](CCCCNC(=O)CCCC(=O)NCCOCCOCCOCC(=O)NCCCC[C@H](NC(=O)COCCOCCOCCNC(=O)CCCC(=O)NCCCC[C@H](NC(=O)[C@H](CC(=O)O)NC(=O)[C@H](CC(=O)O)NC(=O)CNC(=O)[C@@H]2CSSC[C@H](NC(=O)[C@H](CO)NC(=O)[C@H](CC(N)=O)NC(=O)[C@@H](NC(C)=O)C(C)C)C(=O)N[C@@H](CC(C)C)C(=O)N[C@@H](CC(C)C)C(=O)N[C@@H](CC(C)C)C(=O)N3CCC[C@H]3C(=O)N[C@@H](CC(N)=O)C(=O)N[C@@H](CC(C)C)C(=O)N[C@@H](CC(C)C)C(=O)NCC(=O)N2)C(=O)N[C@@H](CCCCNC(=O)CCCC[C@@H]2SC[C@@H]3NC(=O)N[C@@H]32)C(N)=O)C(=O)NCc2cn(-c3cc(C(=O)NCCCCCC(=O)NCCCCCC(=O)NCCCCCC(=O)NCCCCCC(=O)NCCCCCC(=O)NCCCCCC(=O)NCc4cn(CCCC[C@H](NC(=O)N[C@@H](CCC(=O)O)C(=O)O)C(=O)O)nn4)cc(C(=O)NCCCCCC(=O)NCCCCCC(=O)NCCCCCC(=O)NCCCCCC(=O)NCCCCCC(=O)NCCCCCC(=O)NCc4cn(CCCC[C@H](NC(=O)N[C@@H](CCC(=O)O)C(=O)O)C(=O)O)nn4)c3)nn2)C(=O)N[C@@H](CCCCNC(=O)CCCC[C@@H]2SC[C@@H]3NC(=O)N[C@@H]32)C(N)=O)NC(=O)CNC(=O)[C@H](CC(C)C)NC(=O)[C@H](CC(C)C)NC(=O)[C@H](CC(N)=O)NC(=O)[C@@H]2CCCN2C(=O)[C@H](CC(C)C)NC(=O)[C@H](CC(C)C)NC(=O)[C@H](CC(C)C)NC1=O)C(C)C` has a Kd of 0.01 µM (human FcγRI; bead phagocytosis, ternary complex model fit; with: PSMA 80 pM, FcγRI 800 pM).
With `O=C(C[C@@H](C(F)F)n1ccc(F)n1)N1CCC(O)(Cn2cnc3c(cnn3-c3ccc(F)cc3)c2=O)CC1` the Kd was 0.054 ± 0.004 µM (USP7 (Homo sapiens, UniProt Q93009); isothermal titration calorimetry).
The Kd of `Nc1cc(F)ccc1NC(=O)c1ccc(CNC(=O)/C=C/c2cccnc2)cc1` is reported as > 30.2 µM (GATD3; inhibitor, competition pulldown; SW620 and MV4-11 lysate; 1 h).
`O=C(O)CCOc1ccccc1` gave a Kd of > 1000 µM (USP5 ZnF-UBD domain).
`CC(=O)N1c2ccc(-c3ccc(C(=O)O)cc3)cc2[C@H](Nc2ccc(Cl)cc2)C[C@@H]1C` has a Kd of > 0.5 µM (elongin C (Spodoptera frugiperda, UniProt A0A2H1WSX9+A0A9R0EEM2); ternary complex formation, degrader, AlphaLISA).
With `O=C(O)CCc1nc2ccccc2c2nc(Cc3ccccc3)nn12` the Kd was 847 µM (USP5 ZnF-UBD domain).
With `O=C(O)c1cc(-c2cccc(F)c2)ccn1` the Kd was 710 ± 40 µM (Tumor necrosis factor receptor superfamily member 1A extracellular domain; SPR OneStep; immobilized target).
With `C=CC(=O)N1CCN(c2nc(OC[C@@H]3CCCN3C)nc3c(F)c(-c4nc(N)cc(C)c4C(F)(F)F)c(Cl)cc23)[C@@H](C)C1` the Kd was 0.65 ± 0.042 µM (GTPase KRas, GDP-bound (KRAS, Homo sapiens, UniProt P01116)).
The Kd of `Nc1ncnc2c1ncn2[C@@H]1O[C@H](COP(=O)(O)OP(=O)(O)O)[C@@H](O)[C@H]1O` is reported as 5 ± 2 µM (CKMT1A (Homo sapiens, UniProt P12532, E265Q); microscale thermophoresis; pH 8.5, E227Q mutant, with: creatine 10 mM).
`CO[C@H]1O[C@H](COS(=O)(=O)O)[C@@H](O[C@@H]2O[C@@H](C(=O)O)[C@@H](O[C@H]3O[C@H](COS(=O)(=O)O)[C@@H](O[C@@H]4O[C@H](C(=O)O)[C@@H](O[C@H]5O[C@H](COS(=O)(=O)O)[C@@H](O)[C@H](O)[C@H]5NS(=O)(=O)O)[C@H](O)[C@H]4O)[C@H](OS(=O)(=O)O)[C@H]3NS(=O)(=O)O)[C@H](O)[C@H]2OS(=O)(=O)O)[C@H](O)[C@H]1NS(=O)(=O)O` has a Kd of 2 µM (Beta-2-glycoprotein 1, domain V (APOH, Homo sapiens, UniProt P02749, V266L); tryptophan fluorescence titration; pH 7.0, 100 mM NaCl).
The Kd of `CCCC(CCC)C(=O)O` is reported as > 3020 µM (HDAC5; inhibitor, competition pulldown; SW620 and MV4-11 lysate; 1 h).
With `NS(=O)(=O)c1ccccc1` the Kd was 0.5 µM (CA9 (Homo sapiens, UniProt Q16790); binding; pH 7).
The Kd of `O=C(O)c1cc(-c2ccc3c(c2)OCO3)ccn1` is reported as 1360 ± 10 µM (Tumor necrosis factor receptor superfamily member 1A extracellular domain; SPR OneStep; immobilized target).
`Cc1[nH]c2ccccc2c1CCNCc1ccc(/C=C/C(=O)NO)cc1` has a Kd of > 30.2 µM (GATD3; inhibitor, competition pulldown; SW620 and MV4-11 lysate; 1 h).
`O=[N+]([O-])c1cc(C(F)(F)F)ccc1NCc1ccsc1` has a Kd of 0.5 ± 0.04 µM (Endothelial PAS domain-containing protein 1, PAS-B domain (EPAS1, Homo sapiens, UniProt Q99814, N288A); ITC, reverse mode; 25 °C).
The Kd of `Cc1cc2nc3c(=O)[nH]c(=O)nc-3n(C[C@H](O)[C@H](O)[C@H](O)COP(=O)(O)OP(=O)(O)OC[C@H]3O[C@@H](n4cnc5c(N)ncnc54)[C@H](O)[C@@H]3O)c2cc1C` is reported as 0.008 µM (Single-stranded DNA-binding protein 3 (SSBP3, Homo sapiens, UniProt Q9BWW4); binding, MS pulldown competition; SW-620 cell lysate).
`O=C(O)c1cc(-c2ccc3ncsc3c2)ccn1` gave a Kd of 710 ± 76 µM (Tumor necrosis factor receptor superfamily member 1A extracellular domain; binding, SPR OneStep).
The Kd of `OB(O)CSc1nc2ccccc2n1Cc1ccc(C(F)(F)F)cc1C(F)(F)F` is reported as 3.8 ± 0.3 µM (Regulatory protein BlaR1, sensor domain (blaR1, Staphylococcus aureus, UniProt P18357); binding, SPR two-state model).
For `Cc1c[nH]c2cc(-c3ccnc(C(=O)O)c3)ccc12`, the Kd was 372 ± 69 µM (Tumor necrosis factor receptor superfamily member 1A extracellular domain; binding, SPR OneStep).
`N[C@@H](CC(=O)O)C(=O)O` has a Kd of 370 ± 82 µM (Methyl-accepting chemotaxis protein, ligand-binding domain (Pectobacterium atrosepticum, UniProt Q6D6I9); isothermal titration calorimetry; pH 6.0, 25 °C, ligand-binding domain).
For `C/C=C1\NC(=O)[C@H]2CSSCC/C=C/[C@H](CC(=O)N[C@H](C(C)C)C(=O)N2)OC(=O)[C@H](C(C)C)NC1=O`, the Kd was 0.597 µM (HDAC5; inhibitor, competition pulldown; SW620 and MV4-11 lysate; 1 h).
With `O=C(O)c1ccc(-c2ccc(CO)cc2F)cn1` the Kd was 920 ± 30 µM (Tumor necrosis factor receptor superfamily member 1A extracellular domain; SPR OneStep; immobilized target).

Some of these lines once more:
For `COc1ccc(C=C2SC(=O)N(C(C)C(=O)O)C2=O)cc1` (stereo not shown), the Kd was > 1000 µM (USP5 ZnF-UBD domain).
`CO[C@H]1O[C@H](COS(=O)(=O)O)[C@@H](O[C@@H]2O[C@@H](C(=O)O)[C@@H](O[C@H]3O[C@H](COS(=O)(=O)O)[C@@H](O[C@@H]4O[C@H](C(=O)O)[C@@H](O[C@H]5O[C@H](COS(=O)(=O)O)[C@@H](O)[C@H](O)[C@H]5NS(=O)(=O)O)[C@H](O)[C@H]4O)[C@H](OS(=O)(=O)O)[C@H]3NS(=O)(=O)O)[C@H](O)[C@H]2OS(=O)(=O)O)[C@H](O)[C@H]1NS(=O)(=O)O` has a Kd of 2 µM (Beta-2-glycoprotein 1, domain V (APOH, Homo sapiens, UniProt P02749, V266L); tryptophan fluorescence titration; pH 7.0, 100 mM NaCl).
With `O=C(O)CCc1nc2ccccc2c2nc(Cc3ccccc3)nn12` the Kd was 847 µM (USP5 ZnF-UBD domain).
The Kd of `OB(O)CSc1nc2ccccc2n1Cc1ccc(C(F)(F)F)cc1C(F)(F)F` is reported as 3.8 ± 0.3 µM (Regulatory protein BlaR1, sensor domain (blaR1, Staphylococcus aureus, UniProt P18357); binding, SPR two-state model).
For `NCCc1c[nH]c2ccc(O)cc12`, the Kd was 0.00646 ± 0.0006 µM (5-hydroxytryptamine receptor 1E (5HT1E, Cavia porcellus, UniProt Q6VB83); binding, radioligand, saturation binding; AV12 cell membranes; pH 7.4, 37 °C).
